Assay results gathered from unrelated publications.
Lines come from different studies, so protocols differ. Numbers after ± are the reported error.
Method: steady-state kinetics
B1: sacB S173G (Priestia megaterium, UniProt D5DC07); chain KGNDSKDFNNSYGISHITRDNMVKIPQQQNSDQFKVPAFDESTIKNIASAKGKNASGNTIDLDVWDSWPLQNADGTVATYHGYQIVFALAGDPKDSNDTSVYLFYKKAGDKSIDSWKNAGRVFKDSDKFVPNDPHLKNQTQEWGGSGTLTKDGKVRLFYTDYSGKQYGKQTLTTAQVNMSQPNDNTLKVDGVEDYKSIFDGDGKIYQTVQQFIDEGGYDTGDNHTLRDPHYIEDNGHKYLVFEANTGTEDGYQGEDSLYNRAYYGGNNPFFQSEKKKLLEGSNKEKASLANGALGIIELNDDYTLKKVMKPLITSNTVTDEIERANIFKKDGKWYLFTDSRGSKMTIDGIGQDDVYMLGYVSNTLTGKYKPLNDTGLVLHMDLDPNDKTFTYSHFAVPQTKGDNVVITSYMTNRGFYEDNHSTFAPSFLVNIDGSKTSVVKDRVLEQGQLTVDED
B2: TcC (Trypanosoma cruzi, UniProt Q4DGA3); chain MPREYEFAEKILFTEEEIRTRIMEVAKRIADDYKGKGLRPYVNPLVLISVLKGSFMFTADLCRALSDFNVPVRMEFICVSSYGEGVTSSGQVRMLLDTRHSIEGHHVLIVEDIVDTALTLNYLYHMYFTRRPASLKTVVLLDKREGRRVPFSADYVVANIPNAFVIGYGLDYDDTYRELRDIVVLRPEVYAEREAARQKKQRAIGSADTDRDAKREFHSKY
B3: CODH (Afipia carboxidovorans, UniProt P19920); chain MIPGSFDYHRPKSIADAVALLTKLGEDARPLAGGHSLIPIMKTRLATPEHLVDLRDIGDLVGIREEGTDVVIGAMTTQHALIGSDFLAAKLPIIRETSLLIADPQIRYMGTIGGNAANGDPGNDMPALMQCLGAAYELTGPEGARIVAARDYYQGAYFTAIEPGELLTAIRIPVPPTGHGYAYEKLKRKIGDYATAAAAVVLTMSGGKCVTASIGLTNVANTPLWAEEAGKVLVGTALDKPALDKAVALAEAITAPASDGRGPAEYRTKMAGVMLRRAVERAKARAKN
B4: SUOX P168A (Homo sapiens, UniProt P51687); chain ESTHIYTKEEVSSHTSPETGIWVTLGSEVFDVTEFVDLHPGGPSKLMLAAGGPLEPFWALYAVHNQSHVRELLAQYKIGELNPEDKVAATVETSDPYADDPVRHPALKVNSQRPFNAEPPPELLTENYITPNPIFFTRNHLPVPNLDPDTYRLHVVGAPGGQSLSLSLDDLHNFPRYEITVTLQCAGNRRSEMTQVKEVKGLEWRTGAISTARWAGARLCDVLAQAGHQLCETEAHVCFEGLDSDPTGTAYGASIPLARAMDPEAEVLLAYEMNGQPLPRDHGFPVRVVVPGVVGARHVKWLGRVSVQPEESYSHWQRRDYKGFSPSVDWETVDFDSAPSIQELPVQSAITEPRDGETVESGEVTIKGYAWSGGGRAVIRVDVSLDGGLTWQVAKLDGEEQRPRKAWAWRLWQLKAPVPAGQKELNIVCKAVDDGYNVQPDTVAPIWNLRGVLSNAWHRVHVYVSP
B5: DAO1 (Trigonopsis variabilis, UniProt Q99042); chain MAKIVVIGAGVAGLTTALQLLRKGHEVTIVSEFTPGDLSIGYTSPWAGANWLTFYDGGKLADYDAVSYPILRELARSSPEAGIRLISQRSHVLKRDLPKLEVAMSAICQRNPWFKNTVDSFEIIEDRSRIVHDDVAYLVEFRSVCIHTGVYLNWLMSQCLSLGATVVKRRVNHIKDANLLHSSGSRPDVIVNCSGLFARFLGGVEDKKMYPIRGQVVLVRNSLPFMASFSSTPEKENEDEALYIMTRFDGTSIIGGCFQPNNWSSEPDPSLTHRILSRALDRFPELTKDGPLDIVRECVGHRPGREGGPRVELEKIPGVGFVVHNYGAAGAGYQSSYGMADEAVSYVERALTRPNL
B6: pol D141A/E143A (Thermococcus kodakarensis, UniProt P77933); chain 1 MILDTDYITEDGKPVIRIFKKENGEFKIEYDRTFEPYFYALLKDDSAIEEVKKITAERHGTVVTVKRVEKVQKKFLGRPVEVWKLYFTHPQDVPAIRDKIREHPAVIDIYEYDIPFAKRYLIDKGLVPMEGDEELKMLAFAIATLYHEGEEFAEGPILMISYADEEGARVITWKNVDLPYVDVVSTEREMIKRFLRVVKEKDPDVLITYNGDNFDFAYLKKRCEKLGINFALGRDGSEPKIQRMGDRFAVEVKGRIHFDLYPVIRRTINLPTYTLEAVYEAVFGQPKEKVYAEEITTAWETGENLERVARYSMEDAKVTYELGKEFLPMEAQLSRLIGQSLWDVSRSSTGNLVEWFLLRKAYERNELAPNKPDEKELARRRQSYEGGYVKEPERGLWENIVYLDFR; chain 2 SLYPSIIITHNVSPDTLNREGCKEYDVAPQVGHRFCKDFPGFIPSLLGDLLEERQKIKKKMKATIDPIERKLLDYRQRAIKILAN; chain 3 NSYYGYYGYARARWYCKECAESVTAWGREYITMTIKEIEEKYGFKVIYSDTDGFFATIPGADAETVKKKAMEFLKYINAKLPGALELEYEGFYKRGFFVTKKKYAVIDEEGKITTRGLEIVRRDWSEIAKETQARVLEALLKDGDVEKAVRIVKEVTEKLSKYEVPPEKLVIHEQITRDLKDYKATGPHVAVAKRLAARGVKIRPGTVISYIVLKGSGRIGDRAIPFDEFDPTKHKYDAEYYIENQVLPAVERILRAFGYRKEDLRYQKTRQVGLSAWLKPKGT
B7: enzyme (Acinetobacter baumannii, UniProt D0CBC8); chain MALVLDGRALAKQIEENLLVRVEALKAKTGRTPILATILVGDDGASATYVRMKGNACRRVGMDSLKIELPQETTTEQLLAEIEKLNANPDVHGILLQHPVPAQIDERACFDAISLAKDVDGVTCLGFGRMAMGEAAYGSATPAGIMTILKENNIEIAGKHAVVVGRSAILGKPMAMMLLQANATVTICHSRTQNLPELVKQADIIVGAVGKAELIQKDWIKQGAVVVDAGFHPRDGGGVGDIQLQGIEEIASAYTPVPGGVGPMTITTLIRQTVEAAEKALG
B8: enzyme (Halalkalibacterium halodurans, UniProt Q9KCN8); chain MLNVTQLQEATTFIQQQIETKPTIGLILGSGLGILADEIEQPVKVPYSDIPHFPVSTVQGHAGQLVIGMLEGKQVIAMQGRFHFYEGYSLEVVTFPVRVMKALGVEQIIVTNAAGGVNESFEAGDLMIIRDHINNMAQNPLIGPNDEAFGVRFPDMSNAYSERLRTLAKEKGNTLNLKLQEGVYVANTGPVYETPAEVRMIRKLGGDAVGMSTVPEVIVARHAGLEVLGISCISNMAAGILPQPLSHDEVIETTERVRQDFLNLVKAIVKDM
B9: TenA_E (Arabidopsis thaliana, UniProt Q9ASY9); chain MEKRGVIDTWIDKHRSIYTAATRHAFVVSIRDGSVDLSSFRTWLGQDYLFVRRFVPFVASVLIRACKDSGESSDMEVVLGGIASLNDEIEWFKREGSKWDVDFSTVVPQRANQEYGRFLEDLMSSEVKYPVIMTAFWAIEAVYQESFAHCLEDGNKTPVELTGACHRWGNDGFKQYCSSVKNIAERCLENASGEVLGEAEDVLVRVLELEVAFWEMSRGGQ
B10: ycjS (Escherichia coli, UniProt P77503); chain MKSAMTSSPLRVAIIGAGQVADKVHASYYCTRNDLELVAVCDSRLSQAQALAEKYGNASVWDDPQAMLLAVKPDVVSVCSPNRFHYEHTLMALEAGCHVMCEKPPAMTPEQAREMCDTARKLGKVLAYDFHHRFALDTQQLREQVTNGVLGEIYVTTARALRRCGVPGWGVFTNKELQGGGPLIDIGIHMLDAAMYVLGFPAVKSVNAHSFQKIGTQKSCGQFGEWDPATYSVEDSLFGTIEFHNGGILWLETSFALNIREQSIMNVSFCGDKAGATLFPAHIYTDNNGELMTLMQREIADDNRHLRSMEAFINHVQGKPVMIADAEQGYIIQQLVAALYQSAETGTRVEL
B11: ERAP1 K528R (Homo sapiens, UniProt Q9NZ08); chain MVFLPLKWSLATMSFLLSSLLALLTVSTPSWCQSTEASPKRSDGTPFPWNKIRLPEYVIPVHYDLLIHANLTTLTFWGTTKVEITASQPTSTIILHSHHLQISRATLRKGAGERLSEEPLQVLEHPRQEQIALLAPEPLLVGLPYTVVIHYAGNLSETFHGFYKSTYRTKEGELRILASTQFEPTAARMAFPCFDEPAFKASFSIKIRREPRHLAISNMPLVKSVTVAEGLIEDHFDVTVKMSTYLVAFIISDFESVSKITKSGVKVSVYAVPDKINQADYALDAAVTLLEFYEDYFSIPYPLPKQDLAAIPDFQSGAMENWGLTTYRESALLFDAEKSSASSKLGITMTVAHELAHQWFGNLVTMEWWNDLWLNEGFAKFMEFVSVSVTHPELKVGDYFFGKCFDAMEVDALNSSHPVSTPVENPAQIREMFDDVSYDKGACILNMLREYLSADAFKSGIVQYLQKHSYKNTKNEDLWDSMASICPTDGVKGMDGFCSRSQHSSSSSHWHQEGVDVKTMMNTWTLQRGFPLITITVRGRNVHMKQEHYMKGSDGAPDTGYLWHVPLTFITSKSDMVHRFLLKTKTDVLILPEEVEWIKFNVGMNGYYIVHYEDDGWDSLTGLLKGTHTAVSSNDRASLINNAFQLVSIGKLSIEKALDLSLYLKHETEIMPVFQGLNELIPMYKLMEKRDMNEVETQFKAFLIRLLRDLIDKQTWTDEGSVSERMLRSQLLLLACVHNYQPCVQRAEGYFRKWKESNGNLSLPVDVTLAVFAVGAQSTEGWDFLYSKYQFSLSSTEKSQIEFALCRTQNKEKLQWLLDESFKGDKIKTQEFPQILTLIGRNPVGYPLAWQFLRKNWNKLVQKFELGSSSIAHMVMGTTNQFSTRTRLEEVKGFFSSLKENGSQLRCVQQTIETIEENIGWMDKNFDKIRVWLQSEKLEHDPEADATG
Chain of UniProt P09950 (whole entry, unmodified, looked up): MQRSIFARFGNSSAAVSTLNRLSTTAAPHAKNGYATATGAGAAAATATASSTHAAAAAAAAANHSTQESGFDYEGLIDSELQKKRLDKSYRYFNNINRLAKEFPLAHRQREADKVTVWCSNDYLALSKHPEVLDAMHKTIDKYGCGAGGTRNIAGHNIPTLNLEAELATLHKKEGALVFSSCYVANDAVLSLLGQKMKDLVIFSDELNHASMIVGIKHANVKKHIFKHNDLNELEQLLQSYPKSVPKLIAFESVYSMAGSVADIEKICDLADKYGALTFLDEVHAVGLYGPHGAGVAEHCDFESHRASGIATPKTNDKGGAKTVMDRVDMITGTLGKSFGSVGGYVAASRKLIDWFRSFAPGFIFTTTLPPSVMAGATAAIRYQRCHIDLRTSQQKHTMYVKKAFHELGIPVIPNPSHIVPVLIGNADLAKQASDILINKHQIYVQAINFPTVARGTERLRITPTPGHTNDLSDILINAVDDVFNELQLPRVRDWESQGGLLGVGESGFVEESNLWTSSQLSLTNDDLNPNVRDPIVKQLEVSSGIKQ
Chain of UniProt Q8KN33 (whole entry, looked up): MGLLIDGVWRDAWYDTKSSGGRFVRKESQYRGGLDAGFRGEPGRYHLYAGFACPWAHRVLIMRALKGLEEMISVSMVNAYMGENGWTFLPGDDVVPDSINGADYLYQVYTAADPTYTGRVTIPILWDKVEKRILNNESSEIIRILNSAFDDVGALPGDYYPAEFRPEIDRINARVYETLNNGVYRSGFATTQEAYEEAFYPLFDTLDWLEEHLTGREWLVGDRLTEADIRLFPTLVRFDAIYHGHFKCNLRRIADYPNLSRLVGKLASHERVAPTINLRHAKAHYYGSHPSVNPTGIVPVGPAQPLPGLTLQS

`B1 (sacB S173G)` has a kcat/Km of 310 M⁻¹ s⁻¹ (OC[C@H]1O[C@@](CO)(O[C@H]2O[C@H](CO)[C@@H](O)[C@H](O)[C@H]2O)[C@@H](O)[C@@H]1O; pH 6.6).
For `HEM1 (Saccharomyces cerevisiae, UniProt P09950)`, the kcat/Km was 1000 M⁻¹ s⁻¹ (CC(C)(COP(=O)(O)OP(=O)(O)OC[C@H]1O[C@@H](n2cnc3c(N)ncnc32)[C@H](O)[C@@H]1OP(=O)(O)O)[C@@H](O)C(=O)NCCC(=O)NCCSC(=O)CCC(=O)O; pH 7.4, 30 °C).
With `B2 (TcC)` the kcat/Km was 2.1e+06 ± 200000 M⁻¹ s⁻¹ (Nc1nc2nc[nH]c2c(=O)[nH]1; pH 8.3, 37 °C, apparent, together with: PRPP 1 mM, MgCl2 12 mM).
For `B3 (CODH)`, the kcat/Km was 6.37e+06 M⁻¹ s⁻¹ (O=C1C=CC(=O)C=C1; pH 7.2, 25 °C, anaerobic, together with: CO saturating).
`B4 (SUOX P168A)` gave a kcat/Km of 1.5e+06 M⁻¹ s⁻¹ (O=S(O)O; pH 8, 25 °C, together with: oxidized cyt c 400 µM).
`B5 (DAO1)` gave a kcat/Km of 3000 M⁻¹ s⁻¹ (CN(C)c1ccc2nc3ccc(N(C)C)c([N+](=O)[O-])c3[s+]c2c1; pH 8, 22 °C, apparent).
`B6 (pol D141A/E143A)` gave a kcat/Km of 1.5e+06 ± 100000 M⁻¹ s⁻¹ (Nc1nc2c(ncn2[C@H]2C[C@H](O)[C@@H](COP(=O)(O)OP(=O)(O)OP(=O)(O)O)O2)c(=O)[nH]1; pH 8, 55 °C).
With `B7 (enzyme)` the kcat/Km was 3.5e+06 M⁻¹ s⁻¹ (Nc1nc2c(c(=O)[nH]1)[N+]1=CN(c3ccc(C(=O)N[C@@H](CCC(=O)O)C(=O)[O-])cc3)C[C@H]1CN2; pH 7.3, 27 °C).
`B8 (enzyme)` gave a kcat/Km of 1.2e+08 M⁻¹ s⁻¹ (OC[C@H]1O[C@@H](n2cnc3c(O)ncnc32)[C@H](O)[C@@H]1O).
The kcat/Km of `B9 (TenA_E)` is reported as 0.08 M⁻¹ s⁻¹ (Cc1ncc(CN)c(N)n1; pH 7.5, 30 °C, amino-HMP aminohydrolase activity, together with: 450 mM glycine betaine).
For `alanine aminopeptidase (Neisseria meningitidis, UniProt Q9JYV4)`, the kcat/Km was 163000 ± 3000 M⁻¹ s⁻¹ (C[C@H](N)C(=O)Nc1ccc2c(CC(N)=O)cc(=O)oc2c1; pH 7.5, 37 °C).
`B10 (ycjS)` gave a kcat/Km of 81 ± 4 M⁻¹ s⁻¹ (OC[C@H]1OC[C@H](O)[C@@H](O)[C@@H]1O; pH 8, 30 °C, together with: NAD+ 2.0 mM).
With `B11 (ERAP1 K528R)` the kcat/Km was 300000 ± 55000 M⁻¹ s⁻¹ (CC(C)C[C@H](N)C(=O)N[C@@H](CO)C(=O)N[C@@H](CCCNC(=N)N)C(=O)N[C@@H](Cc1c[nH]cn1)C(=O)N[C@@H](Cc1c[nH]cn1)C(=O)N[C@@H](C)C(=O)N[C@@H](Cc1ccccc1)C(=O)N[C@@H](CO)C(=O)N[C@@H](Cc1ccccc1)C(=O)N[C@@H](CCCNC(=N)N)C(=O)O; 25 °C).
`pcpF (Sphingobium chlorophenolicum, UniProt Q8KN33)` gave a kcat/Km of 187 M⁻¹ s⁻¹ (N[C@@H](CS)C(=O)O; pH 6.5, together with: GS-TriCH, ascorbic acid 2 mM).

Repeated from above:
For `B3 (CODH)`, the kcat/Km was 6.37e+06 M⁻¹ s⁻¹ (O=C1C=CC(=O)C=C1; pH 7.2, 25 °C, anaerobic, together with: CO saturating).
`B8 (enzyme)` gave a kcat/Km of 1.2e+08 M⁻¹ s⁻¹ (OC[C@H]1O[C@@H](n2cnc3c(O)ncnc32)[C@H](O)[C@@H]1O).
